Experimental data from different studies.
Each line is one published result; not all experiments were run side by side. Numbers after ± are the reported error.
Enoyl-[acyl-carrier-protein] reductase [NADH]: Enoyl-[acyl-carrier-protein] reductase [NADH] (Francisella tularensis subsp. tularensis, UniProt Q5NGQ3)
bglR: Beta-glucuronidase (bglR, Clostridium perfringens, UniProt Q8XP19)
Spike glycoprotein Beta variant: Spike glycoprotein, Beta variant (Severe acute respiratory syndrome coronavirus 2, UniProt P0DTC2)
Cacna1b with α2δ, β3 subunits: Voltage-dependent N-type calcium channel subunit alpha-1B, with α2δ, β3 subunits (Cacna1b, Rattus norvegicus, UniProt Q02294)

Protein sequences, listed by entry. Tags and fused reporters are not part of them. Lines headed by an entry give the natural chain unless they say otherwise; changes in a name come on top. Chains listed by the source or under a name are the forms on record and can include a tag or linker. Residues count along the entry.
UniProt Q02294, whole entry, looked up: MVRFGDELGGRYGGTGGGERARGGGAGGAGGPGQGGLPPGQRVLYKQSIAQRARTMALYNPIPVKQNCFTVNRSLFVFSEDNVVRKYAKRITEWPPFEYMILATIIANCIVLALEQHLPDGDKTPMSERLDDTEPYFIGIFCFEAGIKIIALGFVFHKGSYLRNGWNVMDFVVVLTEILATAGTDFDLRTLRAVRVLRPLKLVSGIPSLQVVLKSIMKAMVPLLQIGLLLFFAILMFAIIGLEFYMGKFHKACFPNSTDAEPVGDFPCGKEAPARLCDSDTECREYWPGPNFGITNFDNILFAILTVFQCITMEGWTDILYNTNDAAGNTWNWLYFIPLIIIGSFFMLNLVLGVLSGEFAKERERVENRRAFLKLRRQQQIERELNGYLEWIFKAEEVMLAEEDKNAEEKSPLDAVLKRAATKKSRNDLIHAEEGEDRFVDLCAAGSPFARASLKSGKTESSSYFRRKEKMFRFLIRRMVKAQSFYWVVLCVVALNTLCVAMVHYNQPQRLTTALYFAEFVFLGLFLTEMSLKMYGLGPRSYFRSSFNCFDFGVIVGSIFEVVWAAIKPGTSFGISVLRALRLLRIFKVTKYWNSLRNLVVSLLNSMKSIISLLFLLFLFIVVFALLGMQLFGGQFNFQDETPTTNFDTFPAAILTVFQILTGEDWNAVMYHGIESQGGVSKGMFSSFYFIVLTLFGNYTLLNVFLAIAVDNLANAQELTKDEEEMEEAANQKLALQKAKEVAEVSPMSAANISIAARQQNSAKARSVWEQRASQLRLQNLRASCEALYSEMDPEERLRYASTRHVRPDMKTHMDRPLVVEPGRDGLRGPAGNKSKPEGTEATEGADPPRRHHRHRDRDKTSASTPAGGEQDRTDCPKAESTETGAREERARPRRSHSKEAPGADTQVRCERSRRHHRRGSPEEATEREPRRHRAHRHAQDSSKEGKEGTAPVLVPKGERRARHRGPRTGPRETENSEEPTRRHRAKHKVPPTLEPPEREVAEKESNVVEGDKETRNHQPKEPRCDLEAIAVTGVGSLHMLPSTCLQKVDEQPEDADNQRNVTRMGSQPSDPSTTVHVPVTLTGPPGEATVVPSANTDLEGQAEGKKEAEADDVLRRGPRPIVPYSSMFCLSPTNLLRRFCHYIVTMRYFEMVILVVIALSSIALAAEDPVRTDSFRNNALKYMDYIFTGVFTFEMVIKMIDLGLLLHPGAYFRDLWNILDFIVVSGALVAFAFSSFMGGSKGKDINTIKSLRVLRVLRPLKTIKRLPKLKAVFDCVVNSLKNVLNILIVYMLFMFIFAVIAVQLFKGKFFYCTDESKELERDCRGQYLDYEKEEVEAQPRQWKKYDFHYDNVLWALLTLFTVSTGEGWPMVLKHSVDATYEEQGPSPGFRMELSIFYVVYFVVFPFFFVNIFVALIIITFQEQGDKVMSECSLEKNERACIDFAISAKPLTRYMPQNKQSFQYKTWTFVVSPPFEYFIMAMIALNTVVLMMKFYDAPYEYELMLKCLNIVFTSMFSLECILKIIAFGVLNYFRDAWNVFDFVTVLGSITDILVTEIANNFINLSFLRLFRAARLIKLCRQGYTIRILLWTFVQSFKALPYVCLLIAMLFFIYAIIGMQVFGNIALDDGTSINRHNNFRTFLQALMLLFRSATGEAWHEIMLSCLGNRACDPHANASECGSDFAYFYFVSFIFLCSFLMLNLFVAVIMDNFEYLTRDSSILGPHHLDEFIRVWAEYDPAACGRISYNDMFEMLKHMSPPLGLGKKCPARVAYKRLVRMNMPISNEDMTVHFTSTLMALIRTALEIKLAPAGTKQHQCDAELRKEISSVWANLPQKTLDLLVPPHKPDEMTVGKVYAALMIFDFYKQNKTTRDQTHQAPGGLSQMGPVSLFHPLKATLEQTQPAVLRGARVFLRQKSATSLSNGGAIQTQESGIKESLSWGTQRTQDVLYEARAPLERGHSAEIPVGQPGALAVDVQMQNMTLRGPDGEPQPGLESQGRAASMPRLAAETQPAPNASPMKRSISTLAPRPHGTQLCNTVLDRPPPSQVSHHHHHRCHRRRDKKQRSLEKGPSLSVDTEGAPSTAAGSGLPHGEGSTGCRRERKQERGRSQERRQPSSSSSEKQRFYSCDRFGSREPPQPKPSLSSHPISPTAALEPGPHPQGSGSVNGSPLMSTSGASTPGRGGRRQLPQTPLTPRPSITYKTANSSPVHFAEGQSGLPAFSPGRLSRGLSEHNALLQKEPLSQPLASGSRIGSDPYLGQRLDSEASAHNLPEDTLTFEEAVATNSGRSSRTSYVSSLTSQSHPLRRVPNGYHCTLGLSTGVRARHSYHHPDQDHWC
UniProt P37136, 32-614 limits assumed: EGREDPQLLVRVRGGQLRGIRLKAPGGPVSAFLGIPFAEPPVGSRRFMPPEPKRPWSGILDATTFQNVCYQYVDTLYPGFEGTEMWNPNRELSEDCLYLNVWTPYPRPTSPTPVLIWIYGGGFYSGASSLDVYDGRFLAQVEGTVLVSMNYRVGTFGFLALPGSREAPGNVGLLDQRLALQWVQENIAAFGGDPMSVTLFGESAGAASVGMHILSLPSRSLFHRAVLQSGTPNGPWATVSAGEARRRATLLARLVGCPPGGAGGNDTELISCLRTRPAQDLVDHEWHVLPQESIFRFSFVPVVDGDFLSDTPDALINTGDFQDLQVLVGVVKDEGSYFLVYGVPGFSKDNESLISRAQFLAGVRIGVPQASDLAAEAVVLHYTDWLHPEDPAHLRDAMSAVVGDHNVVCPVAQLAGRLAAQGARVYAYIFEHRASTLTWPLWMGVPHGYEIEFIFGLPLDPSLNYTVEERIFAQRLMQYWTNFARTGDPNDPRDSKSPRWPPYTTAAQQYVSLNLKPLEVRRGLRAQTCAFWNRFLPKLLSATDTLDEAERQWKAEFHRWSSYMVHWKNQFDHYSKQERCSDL
UniProt O42275, whole entry, looked up: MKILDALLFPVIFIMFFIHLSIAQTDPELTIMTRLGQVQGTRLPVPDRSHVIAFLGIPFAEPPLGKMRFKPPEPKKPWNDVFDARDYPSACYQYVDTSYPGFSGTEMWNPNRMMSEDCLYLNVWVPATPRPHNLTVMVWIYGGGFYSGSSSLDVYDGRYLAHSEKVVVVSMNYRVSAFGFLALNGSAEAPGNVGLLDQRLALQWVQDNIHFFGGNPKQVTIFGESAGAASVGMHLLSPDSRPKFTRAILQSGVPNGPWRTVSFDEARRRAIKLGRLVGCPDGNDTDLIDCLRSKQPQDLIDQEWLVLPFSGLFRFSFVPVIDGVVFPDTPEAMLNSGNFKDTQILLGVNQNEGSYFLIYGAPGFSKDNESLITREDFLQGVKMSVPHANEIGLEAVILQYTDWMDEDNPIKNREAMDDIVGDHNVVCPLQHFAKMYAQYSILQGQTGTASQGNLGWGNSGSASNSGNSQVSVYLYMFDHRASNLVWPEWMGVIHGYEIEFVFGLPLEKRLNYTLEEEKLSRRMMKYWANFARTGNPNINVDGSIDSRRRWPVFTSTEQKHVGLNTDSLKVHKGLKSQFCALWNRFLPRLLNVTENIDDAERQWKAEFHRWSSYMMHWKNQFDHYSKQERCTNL
UniProt P08510, 1-655 with tags or gaps DEL6-46: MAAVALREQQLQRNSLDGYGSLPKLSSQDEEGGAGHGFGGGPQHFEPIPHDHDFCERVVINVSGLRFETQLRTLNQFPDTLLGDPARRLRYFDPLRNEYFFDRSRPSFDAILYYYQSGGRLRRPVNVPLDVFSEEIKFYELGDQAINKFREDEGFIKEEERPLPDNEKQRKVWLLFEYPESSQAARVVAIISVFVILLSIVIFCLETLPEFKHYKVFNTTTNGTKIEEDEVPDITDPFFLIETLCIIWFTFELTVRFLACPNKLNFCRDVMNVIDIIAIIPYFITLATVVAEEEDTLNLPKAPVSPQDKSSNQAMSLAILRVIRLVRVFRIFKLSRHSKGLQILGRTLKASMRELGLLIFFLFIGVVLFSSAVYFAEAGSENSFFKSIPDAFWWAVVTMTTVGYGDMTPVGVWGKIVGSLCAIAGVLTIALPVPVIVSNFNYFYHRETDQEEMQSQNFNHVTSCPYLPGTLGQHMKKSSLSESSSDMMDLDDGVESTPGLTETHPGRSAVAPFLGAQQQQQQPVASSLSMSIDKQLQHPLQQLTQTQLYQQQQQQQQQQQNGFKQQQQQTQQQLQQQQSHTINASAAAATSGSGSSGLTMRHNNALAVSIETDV

CCOP(=O)(OCC)ON1C(=O)c2cccc3cccc(c23)C1=O — IC50 (Ache (Rattus norvegicus, UniProt P37136); enzyme activity, inhibitor; rat, postnatal day 70, rat brain homogenate; 15 min, 37 °C): 64 nM
c1ccc(Cn2cnc3ccccc32)cc1 — IC50 (Enoyl-[acyl-carrier-protein] reductase [NADH]): > 100000 nM
OCCNc1nc(N2CCNCC2)c2sc3nc(-c4ccccc4)ccc3c2n1 — IC50 (bglR; enzyme activity, inhibitor): 51 ± 1 nM
CC[C@H](C)[C@H](NC(=O)[C@H](C)NC(=O)[C@H](CCC(=O)O)NC(=O)[C@H](CCC(=O)O)NC(=O)[C@H](CC(C)C)NC(=O)[C@H](CCCCN)NC(=O)[C@H](CCCCN)NC(=O)[C@H](CCSC)NC(=O)[C@H](CCC(=O)O)NC(=O)[C@H](Cc1ccc(O)cc1)NC(=O)[C@H](CCC(=O)O)NC(=O)[C@H](CC(C)C)NC(=O)[C@H](CC(=O)O)NC(=O)[C@H](CC(C)C)NC(=O)[C@H](Cc1ccccc1)NC(=O)[C@H](Cc1ccc(O)cc1)NC(=O)[C@@H](NC(=O)[C@H](CC(N)=O)NC(=O)[C@@H](NC(=O)[C@H](CCC(N)=O)NC(=O)[C@H](CC(=O)O)NC(=O)[C@H](CC(C)C)NC(=O)[C@@H](N)CO)[C@@H](C)CC)C(C)C)C(=O)N[C@@H](CCCCN)C(=O)N[C@@H](CCCCN)C(=O)N[C@@H](CC(C)C)C(=O)N[C@@H](CCC(=O)O)C(=O)N[C@@H](CCC(=O)O)C(=O)N[C@@H](CO)C(=O)N[C@@H](Cc1ccc(O)cc1)C(=O)N[C@H](C(=O)N[C@@H](CC(=O)O)C(=O)N[C@@H](CC(C)C)C(=O)N[C@@H](CCCCN)C(=O)N[C@@H](CCC(=O)O)C(=O)N[C@@H](CC(C)C)C(=O)O)[C@@H](C)CC — IC50 (Spike glycoprotein Beta variant; cell-cell fusion, inhibitor, luciferase fusion; 293T donor, Huh-7 target; 16 h, 37 °C): 106 nM
CCSc1nc2ccccc2n1Cc1ccc(Cl)cc1 — IC50 (Enoyl-[acyl-carrier-protein] reductase [NADH]): > 100000 nM
O=C(C1CCN(Cc2ccccc2)CC1)N1CCc2ccccc21 — IC50 (ache (Electrophorus electricus, UniProt O42275); enzyme activity, inhibitor, Ellman; 10 min preincubation, pH 8, 23 °C): 417000 ± 33000 nM
O=C(Nc1ccc(F)cc1)C1C(=O)N(O)C(=O)c2cc([N+](=O)[O-])ccc21 (stereo not drawn) — IC50 (Nucleoprotein, exonuclease domain (N, Machupo virus, UniProt P26578); inhibitor): 11500 nM
Cc1cccc(CN2CCN(C(c3ccccc3)c3ccc(Cl)cc3)CC2)c1 (stereo not drawn) — IC50 (Replicase polyprotein 1ab, nsp14 (rep, Severe acute respiratory syndrome-related coronavirus, UniProt P0C6X7); enzyme activity, inhibitor): 6200 ± 400 nM
CC[C@H](C)[C@@H]1NC(=O)[C@H](CCCNC(=N)N)NC(=O)[C@@H](N)CSSC[C@@H]2NC(=O)[C@@H]3CSSC[C@@H](C(=O)N[C@H](C(=O)O)C(C)C)NC(=O)[C@H](CCCCN)NC(=O)[C@H](CC(N)=O)NC(=O)[C@H](Cc4ccccc4)NC(=O)[C@H](CCCNC(=N)N)NC(=O)[C@H](CC(N)=O)NC(=O)[C@H](CSSC[C@H](NC(=O)[C@H](CCCCN)NC(=O)[C@H](CCC(N)=O)NC(=O)[C@H](CC(N)=O)NC(=O)[C@@H]4C[C@@H](O)CN4C1=O)C(=O)N[C@@H](Cc1ccccc1)C(=O)N[C@@H](CCC(N)=O)C(=O)N[C@@H](Cc1c[nH]cn1)C(=O)N[C@@H](CC(C)C)C(=O)N[C@@H](CC(=O)O)C(=O)N[C@@H](CC(=O)O)C(=O)N3)NC(=O)[C@H](CCCCN)NC(=O)[C@H](CCCNC(=N)N)NC(=O)[C@H](CO)NC2=O — Kd (Sh (Drosophila melanogaster, UniProt P08510, del6-46); potassium current, outside-out patch clamp; chronic application, zero voltage, internal K 100, with: 1 mM TEA): 480 ± 60 nM
C[C@@H](O)[C@@H]1NC(=O)[C@@H]2CSSC[C@H](N)C(=O)N[C@@H](CCCCN)C(=O)NCC(=O)N[C@@H](CCCCN)C(=O)NCC(=O)N[C@@H](CO)C(=O)N[C@@H](CO)C(=O)N[C@H]3CSSC[C@H](NC(=O)[C@H](CO)NC(=O)CNC1=O)C(=O)N[C@@H](CCCNC(=N)N)C(=O)N[C@@H](CC(N)=O)C(=O)NCC(=O)N[C@@H](CCCCN)C(=O)N[C@H](C(N)=O)CSSC[C@H](NC(=O)[C@H](CC(=O)O)NC(=O)[C@H](Cc1ccc(O)cc1)NC(=O)[C@H](CO)NC(=O)[C@H]([C@@H](C)O)NC(=O)[C@H](CCCNC(=N)N)NC(=O)[C@H](CCCNC(=N)N)NC3=O)C(=O)N2 — IC50 (Cacna1b with α2δ, β3 subunits; Ba2+ current, inhibitor, whole-cell patch clamp; HEK293 expressing α2δ and β3; 22 °C, with: Ba2+ 20 mM): 129 nM
CC[C@H](C)[C@H](NC(=O)[C@H](C)NC(=O)[C@H](CCC(=O)O)NC(=O)[C@H](CCC(=O)O)NC(=O)[C@H](CC(C)C)NC(=O)[C@H](CCCCN)NC(=O)[C@H](CCCCN)NC(=O)[C@H](CCSC)NC(=O)[C@H](CCC(=O)O)NC(=O)[C@H](Cc1ccc(O)cc1)NC(=O)[C@H](CCC(=O)O)NC(=O)[C@H](CC(C)C)NC(=O)[C@H](CC(=O)O)NC(=O)[C@H](CC(C)C)NC(=O)[C@H](Cc1ccccc1)NC(=O)[C@H](Cc1ccc(O)cc1)NC(=O)[C@@H](NC(=O)[C@H](CC(N)=O)NC(=O)[C@@H](NC(=O)[C@H](CCC(N)=O)NC(=O)[C@H](CC(=O)O)NC(=O)[C@H](CC(C)C)NC(=O)[C@@H](N)CO)[C@@H](C)CC)C(C)C)C(=O)N[C@@H](CCCCN)C(=O)N[C@@H](CCCCN)C(=O)N[C@@H](CC(C)C)C(=O)N[C@@H](CCC(=O)O)C(=O)N[C@@H](CCC(=O)O)C(=O)N[C@H](C(=O)N[C@@H](Cc1ccc(O)cc1)C(=O)N[C@H](C(=O)N[C@@H](CC(=O)O)C(=O)N[C@@H](CC(C)C)C(=O)N[C@@H](CCCCN)C(=O)N[C@@H](CCC(=O)O)C(=O)N[C@@H](CC(C)C)C(=O)O)[C@@H](C)CC)[C@@H](C)O — IC50 (Spike glycoprotein (MERS-CoV, UniProt K9N5Q8); cell-cell fusion, inhibitor, luciferase fusion; 293T donor, Huh-7 target; 16 h, 37 °C, dual mutations): 5470 nM
c1nc(N2CCNCC2)c2sc3nc(N4CCOCC4)ccc3c2n1 — IC50 (bglR; enzyme activity, inhibitor): 14 ± 8 nM
C[C@@H]1NC(=O)CNC(=O)[C@H](CCCCN)NC(=O)[C@H](CCCNC(=N)N)NC(=O)[C@H](CCCCN)NC(=O)[C@@H](N)CSSC[C@@H]2NC(=O)[C@@H]3CSSC[C@@H](C(N)=O)NC(=O)[C@H](CCCCN)NC(=O)CNC(=O)[C@H](CC(N)=O)NC(=O)[C@H](CCCNC(=N)N)NC(=O)[C@H](CSSC[C@H](NC(=O)[C@H](CO)NC1=O)C(=O)N[C@@H](CCCNC(=N)N)C(=O)N[C@@H](CCCNC(=N)N)C(=O)N[C@@H]([C@@H](C)O)C(=O)N[C@@H](CO)C(=O)N[C@@H](Cc1ccc(O)cc1)C(=O)N[C@@H](CC(=O)O)C(=O)N3)NC(=O)[C@H](CO)NC(=O)CNC(=O)[C@H]([C@@H](C)O)NC2=O — IC50 (Cacna1b with α2δ, β3 subunits; Ba2+ current, inhibitor, whole-cell patch clamp; HEK293 expressing α2δ and β3; 22 °C, with: Ba2+ 20 mM): 68 nM
Cc1ccc(NC2CNC2)cc1C(=O)N[C@H](C)c1cccc(-c2ccc(CN[C@H]3CC[C@@H](O)C3)s2)c1 (single isomer, unassigned) — IC50 (Replicase polyprotein 1ab, papain-like protease (rep, Middle East respiratory syndrome-related coronavirus, UniProt K9N7C7); enzyme activity): > 100000 nM
CC[C@H](C)[C@H](NC(=O)[C@H](C)NC(=O)[C@H](CCC(=O)O)NC(=O)[C@H](CCC(=O)O)NC(=O)[C@H](CC(C)C)NC(=O)[C@H](CCCCN)NC(=O)[C@H](CCCCN)NC(=O)[C@H](CCSC)NC(=O)[C@H](CCC(=O)O)NC(=O)[C@H](Cc1ccc(O)cc1)NC(=O)[C@H](CCC(=O)O)NC(=O)[C@H](CC(C)C)NC(=O)[C@H](CC(=O)O)NC(=O)[C@H](CC(C)C)NC(=O)[C@H](Cc1ccccc1)NC(=O)[C@@H](NC(=O)[C@@H](NC(=O)[C@H](CC(N)=O)NC(=O)[C@@H](NC(=O)[C@H](CCC(N)=O)NC(=O)[C@H](CC(=O)O)NC(=O)[C@H](CC(C)C)NC(=O)[C@H](CO)NC(=O)[C@H](CC(C)C)NC(=O)[C@H](CC(=O)O)NC(=O)[C@@H]1CCCN1C(=O)[C@H](C)N)[C@@H](C)CC)C(C)C)[C@@H](C)O)C(=O)N[C@@H](CCCCN)C(=O)N[C@@H](CCCCN)C(=O)N[C@@H](CC(C)C)C(=O)N[C@@H](CCC(=O)O)C(=O)N[C@@H](CCC(=O)O)C(=O)N[C@@H](CO)C(=O)N[C@@H](Cc1ccc(O)cc1)C(=O)N[C@H](C(=O)N[C@@H](CC(=O)O)C(=O)N[C@@H](CC(C)C)C(=O)N[C@@H](CCCCN)C(=O)N[C@@H](CCC(=O)O)C(=O)N[C@@H](CC(C)C)C(=O)O)[C@@H](C)CC — IC50 (Spike glycoprotein (Severe acute respiratory syndrome coronavirus, UniProt P59594); cell-cell fusion, inhibitor, luciferase fusion; 293T donor, Huh-7 target; 16 h, 37 °C): 32.8 nM
O=C(/C=C/c1ccc(O)cc1)/C(C(=O)Nc1ccccc1)=C(O)/C=C/c1ccc(O)cc1 — IC50 (Lethal factor (Bacillus anthracis, UniProt P15917); peptide cleavage, inhibitor; 100 nM enzyme, with: 3 µM substrate): ~33100 nM
CC[C@H](C)[C@H](NC(=O)[C@H](C)NC(=O)[C@H](CCC(=O)O)NC(=O)[C@H](CCC(=O)O)NC(=O)[C@H](CC(C)C)NC(=O)[C@H](CCCCN)NC(=O)[C@H](CCCCN)NC(=O)[C@H](CCSC)NC(=O)[C@H](CCC(=O)O)NC(=O)[C@H](Cc1ccc(O)cc1)NC(=O)[C@H](CCC(=O)O)NC(=O)[C@H](CC(C)C)NC(=O)[C@H](CC(=O)O)NC(=O)[C@H](CC(C)C)NC(=O)[C@H](Cc1ccccc1)NC(=O)[C@@H](NC(=O)[C@@H](NC(=O)[C@H](CC(N)=O)NC(=O)[C@@H](NC(=O)[C@H](CCC(N)=O)NC(=O)[C@H](CC(=O)O)NC(=O)[C@H](CC(C)C)NC(=O)[C@@H](N)CO)[C@@H](C)CC)C(C)C)[C@@H](C)O)C(=O)N[C@@H](CCCCN)C(=O)N[C@@H](CCCCN)C(=O)N[C@@H](CC(C)C)C(=O)N[C@@H](CCC(=O)O)C(=O)N[C@@H](CCC(=O)O)C(=O)N[C@@H](C)C(=O)N[C@@H](Cc1ccc(O)cc1)C(=O)N[C@H](C(=O)N[C@@H](CC(=O)O)C(=O)N[C@@H](CC(C)C)C(=O)N[C@@H](CCCCN)C(=O)N[C@@H](CCC(=O)O)C(=O)N[C@@H](CC(C)C)C(=O)O)[C@@H](C)CC — IC50 (Spike glycoprotein Beta variant; cell-cell fusion, inhibitor, luciferase fusion; 293T donor, Huh-7 target; 16 h, 37 °C): 106 nM
O=c1c(OCCCO)c(SSc2cnn(-c3ccccc3)c(=O)c2OCCCO)cnn1-c1ccccc1 — IC50 (Sortase A (Bacillus anthracis str. H9401, UniProt P0DPQ5); inhibitor; Bacillus anthracis): 1860 ± 590 nM

A few entries again:
c1ccc(Cn2cnc3ccccc32)cc1 — IC50 (Enoyl-[acyl-carrier-protein] reductase [NADH]): > 100000 nM
OCCNc1nc(N2CCNCC2)c2sc3nc(-c4ccccc4)ccc3c2n1 — IC50 (bglR; enzyme activity, inhibitor): 51 ± 1 nM
CC[C@H](C)[C@H](NC(=O)[C@H](C)NC(=O)[C@H](CCC(=O)O)NC(=O)[C@H](CCC(=O)O)NC(=O)[C@H](CC(C)C)NC(=O)[C@H](CCCCN)NC(=O)[C@H](CCCCN)NC(=O)[C@H](CCSC)NC(=O)[C@H](CCC(=O)O)NC(=O)[C@H](Cc1ccc(O)cc1)NC(=O)[C@H](CCC(=O)O)NC(=O)[C@H](CC(C)C)NC(=O)[C@H](CC(=O)O)NC(=O)[C@H](CC(C)C)NC(=O)[C@H](Cc1ccccc1)NC(=O)[C@H](Cc1ccc(O)cc1)NC(=O)[C@@H](NC(=O)[C@H](CC(N)=O)NC(=O)[C@@H](NC(=O)[C@H](CCC(N)=O)NC(=O)[C@H](CC(=O)O)NC(=O)[C@H](CC(C)C)NC(=O)[C@@H](N)CO)[C@@H](C)CC)C(C)C)C(=O)N[C@@H](CCCCN)C(=O)N[C@@H](CCCCN)C(=O)N[C@@H](CC(C)C)C(=O)N[C@@H](CCC(=O)O)C(=O)N[C@@H](CCC(=O)O)C(=O)N[C@@H](CO)C(=O)N[C@@H](Cc1ccc(O)cc1)C(=O)N[C@H](C(=O)N[C@@H](CC(=O)O)C(=O)N[C@@H](CC(C)C)C(=O)N[C@@H](CCCCN)C(=O)N[C@@H](CCC(=O)O)C(=O)N[C@@H](CC(C)C)C(=O)O)[C@@H](C)CC — IC50 (Spike glycoprotein Beta variant; cell-cell fusion, inhibitor, luciferase fusion; 293T donor, Huh-7 target; 16 h, 37 °C): 106 nM
